Assay results gathered from unrelated publications.
Lines come from different studies, so protocols differ. Several values in a cell are separate wells, animals, samples, runs or records. ± gives the spread as reported.
Cell line: HeLa

SMILES = CN1CCC(c2c(O)cc(O)c3c(=O)cc(-c4ccccc4)oc23)C(O)C1 (stereo not drawn); endpoint = CC50; result = 0.19 µM
SMILES = O=C(Nc1ccc2c(c1)OC(F)(F)O2)Nc1ccc(Cl)c(C(F)(F)F)c1; setting = 24 h; endpoint = CC50; result = 7.04 µM
SMILES = CC(C)n1ncc2c(C(=O)NCC3(C)CNC3)cc(C3CC3)nc21; test = neutral red uptake; setting = 9.2 µM, DMEM, 2% FBS; scale = reference: positive control; endpoint = viability; result = 97.1%
SMILES = C[C@H](CCC(=O)NCCS(=O)(=O)O)[C@H]1CC[C@H]2[C@@H]3[C@H](O)C[C@@H]4C[C@H](O)CC[C@]4(C)[C@H]3C[C@H](O)[C@]12C; setting = 50 µM, 24 h; endpoint = cytotoxicity; result = not toxic
SMILES = COc1cc(/C=C/C=C2\SC(=S)NC2=O)cc(OC)c1O; test = CellTiter-Glo; setting = 10 µM, 24 h, unit not given; scale = reference: untreated; endpoint = viability; result = 0.985 and 0.978
SMILES = C[n+]1cc(NC(=O)c2ccc3ccc4ccc(C(=O)Nc5cc6ccccc6[n+](C)c5)nc4c3n2)cc2ccccc21; test = resazurin; setting = 5 days; endpoint = CC50; result = 53 ± 3 µM
SMILES = Nc1nc(-c2ccccc2)nc2[nH]nc(Nc3ccc(C(F)(F)F)cc3)c12; setting = 72 h; endpoint = CC50; result = > 540 µM
SMILES = CC[C@H](C)[C@H](NC(=O)[C@H](CC(=O)O)NC(=O)[C@H](CCC(=O)O)NC(=O)[C@@H](N)CC(N)=O)C(=O)N[C@@H](CC(=O)O)C(=O)N[C@@H](CCC(N)=O)C(=O)N[C@@H](CCSC)C(=O)N[C@@H](Cc1ccccc1)C(=O)N[C@@H](CO)C(=O)N[C@H](C(=O)N[C@@H](CC(C)C)C(=O)N[C@@H](CC(C)C)C(=O)NCC(=O)N[C@@H](CCC(=O)O)C(=O)N[C@@]1(C)CCCC=CCCC[C@@](C)(C(=O)N[C@@H](CCC(N)=O)C(=O)N[C@@H](CO)C(=O)O)NC(=O)[C@H](CC(C)C)NC(=O)[C@H](CC(C)C)NC(=O)[C@H](CC(=O)O)NC1=O)[C@@H](C)O; setting = 40 µM, 24, 48, 72 h; endpoint = cell viability; result = not toxic
SMILES = Cc1cnc(CNC(=O)c2c(=O)c3ccc(N4CCCN(C)CC4)nc3n3c2sc2ccccc23)cn1; test = cytotoxicity, resazurin; setting = 5 days; endpoint = CC50; result = < 0.2 µM
SMILES = CC(=O)N[C@@H](CS)C(=O)O; test = annexin V/PI; setting = concentration not given, 48 h; endpoint = viable cells; result = 90.4 ± 1.36%
SMILES = CCC(=CCc1c(O)cc2c(c1O)C(=O)C[C@H](c1ccccc1O)O2)CC; test = cytotoxicity, MTT; setting = 48 h, added: S9 fraction; endpoint = log IC50; result = 1.57 log µM
SMILES = Cc1cc(CCCOc2c(C)cc(-c3noc(C(F)(F)F)n3)cc2C)on1; setting = 72 h; endpoint = CC50; result = 42 µM
